Measured values gathered from unrelated publications.
Each line is one published result; not all experiments were run side by side. Numbers after ± are the reported error.
MAPK8: Mitogen-activated protein kinase 8 (MAPK8, Homo sapiens, UniProt P45983)

Sequences of proteins named here, by UniProt entry; tags and fusion partners are left off. Residues count along the entry.
UniProt P45983, 1-384 isoform 3: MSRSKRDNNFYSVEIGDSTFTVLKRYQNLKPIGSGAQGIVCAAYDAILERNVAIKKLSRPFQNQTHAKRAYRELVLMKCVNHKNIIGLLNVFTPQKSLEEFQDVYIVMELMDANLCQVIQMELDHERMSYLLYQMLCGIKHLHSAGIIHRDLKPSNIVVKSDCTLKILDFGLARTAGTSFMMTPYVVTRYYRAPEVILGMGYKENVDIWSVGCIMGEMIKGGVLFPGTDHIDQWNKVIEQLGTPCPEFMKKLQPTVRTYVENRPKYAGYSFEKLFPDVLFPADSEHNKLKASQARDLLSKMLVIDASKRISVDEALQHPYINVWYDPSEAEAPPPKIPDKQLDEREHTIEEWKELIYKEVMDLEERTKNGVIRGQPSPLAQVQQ
UniProt Q9VNB5, whole entry: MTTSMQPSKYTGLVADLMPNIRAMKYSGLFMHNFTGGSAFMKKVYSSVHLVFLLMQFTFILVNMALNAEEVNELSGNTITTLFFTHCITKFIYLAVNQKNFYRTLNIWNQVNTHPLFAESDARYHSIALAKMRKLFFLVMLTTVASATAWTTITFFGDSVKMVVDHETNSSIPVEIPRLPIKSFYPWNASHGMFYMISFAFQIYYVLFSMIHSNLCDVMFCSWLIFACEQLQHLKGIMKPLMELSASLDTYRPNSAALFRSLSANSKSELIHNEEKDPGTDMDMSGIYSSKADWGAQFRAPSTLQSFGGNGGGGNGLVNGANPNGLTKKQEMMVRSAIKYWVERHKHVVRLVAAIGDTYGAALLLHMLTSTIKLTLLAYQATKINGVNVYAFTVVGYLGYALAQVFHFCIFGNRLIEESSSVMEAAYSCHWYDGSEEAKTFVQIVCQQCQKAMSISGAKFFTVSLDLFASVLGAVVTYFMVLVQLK
UniProt O39929, 2418-3008 limits assumed: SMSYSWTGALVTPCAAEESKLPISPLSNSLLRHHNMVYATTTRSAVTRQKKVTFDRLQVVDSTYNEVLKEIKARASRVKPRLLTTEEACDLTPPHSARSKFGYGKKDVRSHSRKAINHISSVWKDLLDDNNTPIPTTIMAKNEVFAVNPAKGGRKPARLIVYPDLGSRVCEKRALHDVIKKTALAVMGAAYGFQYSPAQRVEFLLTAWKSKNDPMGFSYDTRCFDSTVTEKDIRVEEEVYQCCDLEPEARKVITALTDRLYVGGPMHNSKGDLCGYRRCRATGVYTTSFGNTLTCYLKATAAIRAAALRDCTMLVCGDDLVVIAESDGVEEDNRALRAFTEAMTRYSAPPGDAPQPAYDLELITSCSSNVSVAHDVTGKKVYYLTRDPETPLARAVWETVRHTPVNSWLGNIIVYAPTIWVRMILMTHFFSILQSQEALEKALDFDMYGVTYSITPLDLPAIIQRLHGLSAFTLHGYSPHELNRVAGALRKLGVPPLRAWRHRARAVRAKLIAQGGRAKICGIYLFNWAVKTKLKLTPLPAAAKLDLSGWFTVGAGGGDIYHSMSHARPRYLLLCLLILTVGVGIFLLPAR
UniProt P25084, 1-173 limits assumed: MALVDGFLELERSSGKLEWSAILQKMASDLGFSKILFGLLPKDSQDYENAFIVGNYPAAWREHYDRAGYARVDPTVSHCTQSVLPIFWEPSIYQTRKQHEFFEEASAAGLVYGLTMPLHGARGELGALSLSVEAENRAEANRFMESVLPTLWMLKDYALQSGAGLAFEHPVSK
UniProt P08588, whole entry: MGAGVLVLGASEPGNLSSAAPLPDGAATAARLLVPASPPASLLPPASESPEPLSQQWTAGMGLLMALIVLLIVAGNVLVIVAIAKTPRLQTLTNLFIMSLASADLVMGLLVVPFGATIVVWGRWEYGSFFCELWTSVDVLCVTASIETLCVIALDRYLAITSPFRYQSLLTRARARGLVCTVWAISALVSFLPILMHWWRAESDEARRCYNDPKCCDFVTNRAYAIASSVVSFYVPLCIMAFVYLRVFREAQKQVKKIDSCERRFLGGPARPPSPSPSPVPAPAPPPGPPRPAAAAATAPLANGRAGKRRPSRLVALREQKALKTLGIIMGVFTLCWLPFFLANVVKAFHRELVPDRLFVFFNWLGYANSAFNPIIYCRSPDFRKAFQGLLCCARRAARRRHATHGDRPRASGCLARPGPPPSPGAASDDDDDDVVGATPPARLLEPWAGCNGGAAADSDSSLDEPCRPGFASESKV
UniProt Q9BUB5, 1-424 isoform 2 C190S: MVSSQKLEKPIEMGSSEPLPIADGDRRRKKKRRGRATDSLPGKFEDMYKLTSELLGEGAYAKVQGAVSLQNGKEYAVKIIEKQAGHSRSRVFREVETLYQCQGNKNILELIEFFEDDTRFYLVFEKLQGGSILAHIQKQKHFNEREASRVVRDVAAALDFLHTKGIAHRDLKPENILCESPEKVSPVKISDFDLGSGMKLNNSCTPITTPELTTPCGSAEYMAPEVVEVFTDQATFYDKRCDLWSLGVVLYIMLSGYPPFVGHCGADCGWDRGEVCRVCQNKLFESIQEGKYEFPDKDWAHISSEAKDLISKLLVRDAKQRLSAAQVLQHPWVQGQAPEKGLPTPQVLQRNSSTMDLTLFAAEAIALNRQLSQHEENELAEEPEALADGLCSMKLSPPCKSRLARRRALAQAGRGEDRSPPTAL

SMILES	target or system	test	system	setting	scale	endpoint	value
CCc1ccc(NC(=O)CSc2nnc(-c3cccnc3)n2C2CC2)cc1	Orco (Drosophila melanogaster, UniProt Q9VNB5)	calcium mobilization, agonist	HEK293 expressing Drosophila Orco	–	baseline: VUAA1	efficacy	171%
O=c1ccn([C@@H]2O[C@H](COP(=O)(O)OP(=O)(O)OP(=O)(O)O)[C@@H](O)[C@]2(F)Br)c(=O)[nH]1	Genome polyprotein, NS5B polymerase (Hepatitis C virus genotype 4a, UniProt O39929)	polymerase activity, inhibitor	Hepatitis C virus, genotype 4a	–	baseline: genotype 1b	IC50 fold change	2.8
CC(CCN[C@H](CN[C@H](CO)CN1CCC[C@H]1CN[C@H](CN)c1ccccc1)c1ccccc1)c1ccccc1 (stereo partly drawn)	Escherichia coli	bacterial growth	–	16 µM, fold shift of IC90, added: amikacin	–	potentiation of amikacin	3.1 fold
[11CH3]Nc1ccc(C(=O)C2CCN(C3Cc4ccccc4CC3O)CC2)cc1 (single isomer, unassigned)	–	–	Sprague-Dawley rat, kidney	30 min, added: cyclosporin A 25 mg/kg pretreatment	–	uptake	1.21 %ID/g
COC(=O)[C@@H](CS)N1C(=O)c2ccc(N(C)C)cc2C1=O	VIM-2 (Escherichia coli, UniProt Q5U7L7)	probe	–	10 µM, probe:enzyme 1:3, added: ZnSO4 10 µM	baseline: probe alone	fluorescence increase	6 fold
COC(=O)[C@@]1(C)C=C(C(=O)Nc2cc(C(=O)Nc3ccc(Nc4nccc(-c5cccnc5)n4)cc3)ccc2C)C(=O)CC1	MAPK8	kinase activity, inhibitor	–	2.788e-05 µM, unit not given, added: 10 mM GSH	baseline: DMSO	remaining activity	1.03
CC(=O)Oc1c(Br)cc(Br)cc1CNC(=O)c1ccccc1[N+](=O)[O-]	lasR (Pseudomonas aeruginosa, UniProt P25084)	thermal stability, differential scanning fluorimetry	–	–	–	melting temperature	54.8 ± 0.3 °C
C[C@H](CS)C(=O)N[C@H](Cc1c[nH]c2ccccc12)C(=O)O	Klebsiella pneumoniae	–	VIM-1 producing	10 µM, added: meropenem	–	MIC of meropenem	16 µg/mL
COC(=O)[C@@]1(C)C=C(C(=O)Nc2ccc(C)c(C(=O)Nc3ccc(Nc4nccc(-c5cccnc5)n4)cc3)c2)C(=O)CC1	MAPK8	kinase activity, inhibitor	–	0.0007527 µM, unit not given, added: 10 mM GSH	baseline: DMSO	remaining activity	0.95
NCCNCCSc1ccccc1	–	spectrophotometry	–	pH 6.4	–	pKa	6.25
COc1ccc(CN[C@@H]2CO[C@H](C(c3ccccc3)c3ccccc3)C[C@H]2O)cc1	ADRB1 (Homo sapiens, UniProt P08588)	radioligand binding, radioligand displacement	–	10 µM	–	inhibition	-4.7%
C=CC(=O)Nc1cc(-n2c(=O)ccc3cnc4ccc(-c5cn[nH]c5)cc4c32)ccc1C	MKNK1 (Homo sapiens, UniProt Q9BUB5, C231S)	enzyme activity, inhibitor, immunoprecipitated kinase	–	–	–	highest concentration rescued by mutant	> 3 µM
